{"data": "Measured values of several laboratories", "IDE": "Insulin-degrading enzyme (IDE, Homo sapiens, UniProt P14735)", "note": "Each line is one published result; not all experiments were run side by side. “And” joins repeats or separate records; there may be more than shown. Numbers after ± are the reported error."}
{"SMILES": "CCOC(=O)CCNc1cc(N2CCc3ccccc3CC2)nc(-c2ccccn2)n1", "tested on": "HBL-1", "setting": "0.5 µM, 120 h", "measurement": "viability", "value": "111%"}
{"SMILES": "O=C(OC(C(F)(F)F)C(F)(F)F)N1CCN(Cc2cccc(Oc3ccccc3)c2)CC1", "assay": "PET blocking study", "test system": "rhesus monkey, brain THA", "setting": "0.03 mg/kg, compound pretreatment, added: [18F]T-401 tracer", "measurement": "k2", "value": "0.04 min⁻¹"}
{"SMILES": "C[C@@H](Nc1cc(F)cc(F)c1)c1cc(C(=O)N(C)C)cc2c(=O)cc(N3CCOCC3)oc12", "test system": "advanced solid tumour patients", "setting": "oral, 120 mg twice daily, continuous monotherapy", "measurement": "any dose reduction", "value": "40%"}
{"SMILES": "O=C(O)CCC(=O)O.[2H]C([2H])([2H])Oc1cc(C)c2[nH]ccc2c1CN1CC[C@@H](C2CC2)C[C@H]1c1ccc(C(=O)O)cc1", "assay": "multiple ascending dose", "test system": "healthy Chinese subjects", "setting": "50 mg twice daily", "measurement": "subjects with lymphopenia", "value": "12.5%"}
{"SMILES": "Cc1ccccc1S(=O)(=O)N1CCCCN2[C@H](CO)[C@@H](c3ccc(-c4ccc5c(c4)OCO5)cc3)[C@@H]2C1", "tested on": "IDE", "assay": "enzyme activity, inhibitor, fluorescence kinetic", "setting": "added: Mca-RPPGFSAFK(Dnp)-OH substrate", "measurement": "EC50", "value": "2900 nM"}
{"SMILES": "Cc1ccc(C(=O)N(CCCN)C(c2nc3snc(C)c3c(=O)n2Cc2ccccc2)C(C)C)cc1 (stereo not drawn)", "test system": "human patients", "setting": "intravenous, 16 mg/day", "measurement": "grade ≥3 hypokalemia patients", "value": "43%"}
{"SMILES": "COc1cc(N2CCC(N3CCN(C)CC3)CC2)ccc1Nc1ncc(Cl)c(Nc2ccccc2P(C)(C)=O)n1", "test system": "nude mice, NCI-H3122 xenograft", "setting": "intraperitoneal, 10 mg/kg every other day, day 9", "measurement": "body weight", "value": "23.7 g and 23.1 g and 21.8 g and 24.6 g and 24.7 g"}
{"SMILES": "Cc1ccc(-c2cc(C(F)(F)F)nn2-c2ccc(S(N)(=O)=O)cc2)cc1", "test system": "rat, stomach", "setting": "concentration not given, 4 h", "how to read": "reference: indomethacin", "measurement": "ulcer index", "value": "26.9%"}
{"SMILES": "Cc1ccccc1-c1ccc([C@H]2[C@@H](CO)N3CCCCN(S(=O)(=O)c4cn(C)cn4)C[C@@H]23)cc1", "tested on": "IDE", "assay": "enzyme activity, inhibitor, fluorogenic kinetic", "setting": "added: Mca-RPPGFSAFK(Dnp)-OH substrate", "measurement": "EC50", "value": "> 100000 nM"}
{"SMILES": "CCc1c(-c2ccccc2)c(-c2ccccc2)nn1-c1ccccc1-c1cccc(OCC(=O)O)c1", "test system": "Sprague-Dawley rat", "setting": "oral", "measurement": "Vz/F observed", "value": "7.43 L/kg and 8.11 L/kg and 8.61 L/kg"}
{"SMILES": "CC(C)(C)NCC(O)c1ccc(O)c(CO)c1 (stereo not drawn)", "assay": "equilibrium dialysis", "test system": "rat, lung homogenate", "measurement": "fraction unbound", "value": 1}
{"SMILES": "C[C@H]1Oc2cc(cnc2N)-c2c(nn(C)c2C#N)CN(C)C(=O)c2ccc(F)cc21", "assay": "population PK", "test system": "normal hepatic function (NCI A), plasma", "setting": "oral, 100 mg, mean, single dose", "measurement": "clearance", "value": "151 mL/min"}
{"SMILES": "Cc1cc(NC2CCN(C(=O)OC3CCN(C(=O)/C=C/CN(C)C)C3)CC2)n2ncc(C(C)C)c2n1 (stereo not drawn)", "assay": "Phase I dose escalation CTCAE v4.0, refers to: back pain", "test system": "patients with advanced solid tumours", "setting": "dose not given, TIW dosing grade 3 or higher", "measurement": "patients with adverse event", "value": "0%"}
{"SMILES": "Cc1cc(-c2nccc3c2ccn3CC(=O)Nc2ccc(-c3cnccn3)cn2)ccn1", "test system": "human", "setting": "SAD part, single 20 mg dose", "measurement": "subjects with Wheezing TEAEs", "value": "0%"}
{"SMILES": "CC(=O)N(C)[C@H]1CCN(C(=O)c2cnc3c(c2)C[C@](C)(c2ccc(F)cc2)N3)C1", "test system": "healthy male subjects, multiple rising dose", "setting": "oral, 30 mg once daily", "measurement": "any adverse event", "value": "50%"}
{"SMILES": "C=CCN1CC(=O)N2[C@@H](Cc3ccc(O)cc3F)C(=O)N(Cc3cccc(N4CC(N5CCN(CC)CC5)C4)n3)C[C@@H]2N1C(=O)NCc1ccccc1", "test system": "advanced solid tumour patients", "setting": "oral, 45 mg twice daily, grade ≥3, dose-escalation", "measurement": "any treatment-related adverse event", "value": "0%"}
{"SMILES": "Cn1cc(-c2cn3nccc3c(-c3cnn([C@]4(CC#N)C[C@@H](C#N)C4)c3)n2)cn1", "test system": "healthy humans fasted, plasma", "setting": "100 mg single dose, geometric mean", "measurement": "apparent clearance CL/F", "value": "63.2 L/h"}
{"SMILES": "COc1cccc2c1C(=O)c1c(O)c3c(c(O)c1C2=O)C[C@@](O)(C(=O)CO)C[C@@H]3O[C@H]1C[C@H](NC(=O)[C@@H]2CCCN2C(=O)CNC(=O)[C@@H](N)CC(C)C)[C@H](O)[C@H](C)O1", "test system": "healthy mouse, plasma", "setting": "intravenous, 94.4 mg/kg PhAc-ALGP-Dox", "measurement": "Cmax", "value": "1300 ± 180 nM"}
{"SMILES": "Cc1cc(Nc2ccc(S(F)(F)(F)(F)F)cc2)n2nc(C(C)(F)F)nc2n1", "test system": "Plasmodium vivax malaria patients", "setting": "oral, 400 mg", "measurement": "adverse event Asthenia", "value": "0%"}
{"SMILES": "O=C1CC[C@H](N2Cc3cc(N4CCN(CC5CCN(c6ccc([C@@H]7c8ccc(O)cc8CC[C@@H]7c7ccccc7)cc6)CC5)CC4)ccc3C2=O)C(=O)N1", "test system": "human", "setting": "oral, 200 mg, added: dabigatran etexilate 75 mg", "measurement": "participants with TEAE dry skin", "value": "0%"}
{"SMILES": "Cc1ccc(NC(=O)CCCCCC(=O)Nc2ccccc2N)cc1", "tested on": "HBL-1", "setting": "0.5 µM, 120 h", "measurement": "viability", "value": "119%"}
{"SMILES": "CCn1c(C(=O)N(C2CC2)C2CC2)cc2c3c(ncn3C)c(Nc3cc(C)n(C)n3)nc21", "test system": "cancer patients", "setting": "oral, 200 mg single dose, day 1, 6.0 h", "measurement": "plasma concentration", "value": "1230 ng/mL"}
{"SMILES": "N#Cc1ccc2c(c1)[C@H]1CCCN(C(=O)c3ccc4[nH]cnc4c3)[C@H]1C2", "test system": "human females", "setting": "240 mg, end of trial", "measurement": "SHBG level", "value": "41.5 nmol/L"}
{"SMILES": "COc1ccnc(C(=O)N[C@@H](CO)C(=O)O)c1OCOC(=O)C(C)C", "test system": "Swiss Lake sand sediment, aerobic dark", "setting": "20 °C", "measurement": "DT50 water", "value": "5.66 days"}
{"note": "A few entries again:"}
{"SMILES": "Cc1cc(-c2nccc3c2ccn3CC(=O)Nc2ccc(-c3cnccn3)cn2)ccn1", "test system": "human", "setting": "SAD part, single 20 mg dose", "measurement": "subjects with Wheezing TEAEs", "value": "0%"}
{"SMILES": "C=CCN1CC(=O)N2[C@@H](Cc3ccc(O)cc3F)C(=O)N(Cc3cccc(N4CC(N5CCN(CC)CC5)C4)n3)C[C@@H]2N1C(=O)NCc1ccccc1", "test system": "advanced solid tumour patients", "setting": "oral, 45 mg twice daily, grade ≥3, dose-escalation", "measurement": "any treatment-related adverse event", "value": "0%"}
{"SMILES": "C[C@H]1Oc2cc(cnc2N)-c2c(nn(C)c2C#N)CN(C)C(=O)c2ccc(F)cc21", "assay": "population PK", "test system": "normal hepatic function (NCI A), plasma", "setting": "oral, 100 mg, mean, single dose", "measurement": "clearance", "value": "151 mL/min"}
